Experimental data of several laboratories.
± gives the spread as reported.

| Compound | cell line | assay | setting | EC50 |
| --- | --- | --- | --- | --- |
| O=c1[nH]nc(OCCCc2ccc(Cl)cc2)c(NCc2cccnc2)c1Br | HEK-293T ATF4-FLuc reporter | reporter gene, activator, item: ATF4-FLuc | 8 h | 6200 nM |
| C=C(NC(=O)c1csc(-c2ccc(NC(=O)CCCCCBr)cc2)n1)C(=O)NC(=C)C(=O)OC | H-MESO-1 | cell viability, crystal violet | 48 h | 860 ± 60 nM |
| Cc1nc(NCCOCCOCCNc2ncc(C(=O)NC3=NN(c4ccc(Cl)c(Cl)c4)CC3)c(C)n2)ncc1C(=O)NC1=NN(c2ccc(Cl)c(Cl)c2)CC1 | BV-173 | cell growth or viability, ATP luminescence | 72 h | 149 nM |
| CN1CC[C@@H](COc2cnc(C#N)cc2-c2ccn3nc(NC(=O)C4CC4)cc3c2)C1 | wild-type littermate mouse BMDC | IL-10 release, inducer | 4 h, with: LPS | 620 nM |
| C=C(NC(=O)c1csc(-c2cccnc2)n1)C(=O)NC(=C)C(=O)OC | H-MESO-1 | cell viability, crystal violet | 48 h | 4000 ± 400 nM |
| CC(=O)N[C@@H](CC[S+](C)[Ru-4]123([S+](C)CC[C@H](NC(C)=O)C(=O)O)[n+]4ccc5ccccc5c4Nc4cccc([n+]41)-c1cccc([n+]12)Nc1c2ccccc2cc[n+]13)C(=O)[O-].F[P-](F)(F)(F)(F)F (some centres unmarked) | MRC-5 | photocytotoxicity, SRB | 24 h, with: green light | < 1000 nM |
| N=C(N)NCCC[C@@H](NC(=O)[C@H](Cc1ccccc1)NC(=O)[C@H](Cc1ccccc1)NC(=O)[C@@H](CCCNC(=N)N)NC(=O)CCCC[C@@H]1SC[C@@H]2NC(=O)N[C@@H]21)C(N)=O | MDBK | cell survival, AlamarBlue | 5 days, serum-free medium | ~100 nM |
| CCc1cnc(N2CCC(c3nc(COc4ccc(-n5cnnn5)cc4)cs3)CC2)nc1 | HEK-293T ATF4-FLuc reporter | reporter gene, activator, item: ATF4-FLuc |  | 3600 nM |
| Cc1ccncc1.[Cl-].[Cl-].[Ru+2].c1cc(-c2ccc3cccnc3n2)nc(-c2ccc3cccnc3n2)c1.c1ccc2cc3nc4c5cccnc5c5ncccc5c4nc3cc2c1 | SK-MEL-28 | cell viability | dark | 79600 ± 2500 nM |
| C=CC(=O)N1[C@@H](c2ccc3c(c2)OCO3)c2[nH]c3ccccc3c2C[C@H]1C(=O)NC1CC1 | rat DRG neurons | neurite degeneration | 48 h, with: vincristine 40 nM | 2730 nM |
| C=C(NC(=O)C(=C)NC(=O)c1csc(C2=N[C@@H]3c4csc(n4)[C@H]4NC(=O)c5csc(n5)[C@H]([C@](C)(O)[C@@H](C)O)NC(=O)[C@H]5CSC(=N5)/C(=C/C)NC(=O)[C@H]([C@@H](C)O)NC(=O)c5csc(n5)[C@]3(CC2)NC(=O)[C@H](C)NC(=O)C(=C)NC(=O)[C@H](C)NC(=O)[C@H]([C@@H](C)CC)N[C@@H]2C=Cc3c([C@H](C)O)cc(nc3[C@H]2O)C(=O)O[C@@H]4C)n1)C(N)=O | H-MESO-1 | cell viability, crystal violet | 24 h exposure, 48 h total | 720 nM |
